{"data": "Assay results from different studies", "cell line": "SK-BR-3", "note": "Protocols differ between the studies behind these lines."}
{"Compound": "CCOc1cncc(-c2ccc(NC(=O)C3(c4ccnc(NS(=O)(=O)C5CC5)n4)CCOCC3)nc2)n1", "test": "cell growth or viability, ATP luminescence", "setting": "72 h", "quantity": "IC50", "result": "39 nM"}
{"Compound": "COC(=O)N1c2ccc3c(nc(Cc4ccccc4)n3[C@@H]3CCC[C@@H](C(=O)O)C3)c2CC[C@@H]1C", "test": "cell growth or viability, ATP luminescence", "setting": "10 days", "quantity": "IC50", "result": "2870 nM"}
{"Compound": "CC(C)c1ccc(N(C)c2ccc3c(c2)OCC[C@H]3CNc2cnccc2C(=O)O)cc1", "test": "cell viability, CellTiter-Glo", "setting": "7 days", "quantity": "IC50", "result": "7.14 nM"}
{"Compound": "CCOC(=O)/C=C1\\S/C(=N\\N=C\\c2cccc3cc4ccccc4nc23)N(c2ccc(OC)cc2)C1=O", "test": "cell growth or viability, MTT", "setting": "48 h", "quantity": "IC50", "result": "> 50000 nM"}
{"Compound": "CNS(=O)(=O)Nc1nccc(Cc2c(C)c3ccc(Oc4ncccc4F)cc3oc2=O)c1F", "test": "cell viability", "setting": "7 days", "quantity": "IC50", "result": "> 1000 nM"}
{"Compound": "COc1ccc(N2C(=O)CS/C2=N\\N=C\\c2cccc3cc4ccccc4nc23)cc1", "test": "cell growth or viability, MTT", "setting": "48 h", "quantity": "IC50", "result": "> 50000 nM"}
{"Compound": "Cc1sc2c(c1C)C(c1ccc(Cl)cc1)=N[C@@H](CC(=O)NCCN(C)CCCCNC(=O)CCCCOc1cccc3c1C(=O)N([C@H]1CCC(=O)NC1=O)C3=O)c1nnc(C)n1-2", "test": "cell growth or viability, CCK-8", "setting": "72 h", "quantity": "IC50", "result": "1130 nM"}
{"Compound": "COc1cccc(N2C(=O)CS/C2=N\\N=C\\c2cccc3cc4ccccc4nc23)c1", "test": "cell growth or viability, MTT", "setting": "48 h", "quantity": "IC50", "result": "> 50000 nM"}
{"Compound": "CCN(C(=O)c1cc(F)ccc1Oc1nncnc1N1CCC2(C1)CN([C@H](CCCN(C)CCOC)C(C)C)C2)C(C)C", "test": "cell growth or viability", "setting": "7 days", "quantity": "GI50", "result": "> 10000 nM"}
{"note": "Excerpt of the above:"}
{"Compound": "COc1ccc(N2C(=O)CS/C2=N\\N=C\\c2cccc3cc4ccccc4nc23)cc1", "test": "cell growth or viability, MTT", "setting": "48 h", "quantity": "IC50", "result": "> 50000 nM"}
